Measurements gathered from unrelated publications.
Each line is one published result; not all experiments were run side by side. Values joined by “and” are separate records of one study, mostly repeats; a detail may differ. Numbers after ± are the reported error.

CC(=O)[O-].O.O.O.O.[Ni+2].[O-]c1ccc(Br)cc1C=NCCN1CCOCC1
inhibition (DPPH radical scavenging; 40 µM): 12.4%

c1ccc(-c2n[nH]cc2-c2ccnc3ccccc23)nc1
log2 fold change (TPK1 (Candida albicans); kinase binding, MIB/MS competition; Candida albicans lysate; 10 µM; relative to: DMSO): -0.19

CC(C)c1ccc(N(C)c2ccc3c(c2)OCC[C@H]3CNc2cnccc2C(=O)O)cc1
IC50 (CHL-1; cell growth or viability, ATP luminescence; 7 days): 6.08 nM

Nc1ncc(-c2cc(-c3cnn(CC(F)(F)F)c3)ncc2F)nc1C(=O)NC1CNCC(F)C1 (centres unmarked)
remaining binding (EPHA2; KINOMEscan; 1 µM; relative to: DMSO control): 95%

COc1cc(O)ccc1CCC(c1ccc(O)cc1)c1cc2c(c(C)c1O)OC(c1ccc(O)cc1)CC2 (mixture of isomers)
PGD2 level (human blood; 0.3 µM, added: A23187): 5 ± 2 pg/mL

CN1CCC[C@]1(C)/C=C/S(=O)(=O)NC(=O)Nc1c2c(cc3c1CCC3)CCC2
IL-1β inhibition (human, whole blood ex vivo; 50 mg twice daily, day 1, 12 h, multiple ascending dose, added: LPS and ATP): 98.2%

Cn1cc(-c2cc3c(N4CCC[C@H](C(=O)NCc5ccc(OC(F)(F)F)cc5)C4)ncnc3[nH]2)cn1
inhibition (NCI-H2228; cell growth or viability, MTT; 1 µg/mL, 72 h): 72.2%

Cc1c(C)c2cccnc2c2ncccc12.O=[N+]([O-])[O-].O=c1c(C=NN=C([S-])Nc2ccccc2)coc2ccccc12.[Cu+2]
supercoiled DNA remaining (supercoiled pUC19 DNA; oxidative DNA cleavage; concentration not given, under nitrogen, added: ascorbic acid): 0%

CCN(CC)CC(=O)Nc1cccc(-n2cc(-c3ccc4ccc(-c5cn(-c6cccc(NC(=O)CN(CC)CC)c6)nn5)cc4c3)nn2)c1
fold regulation (RCC4; PCR angiogenesis array, measured: IL6; 5 x IC50, 2 h, normoxia; relative to: untreated): 1.07

Cc1cc(NC2CCN(C)CC2)ccc1-c1cc2c(N3CCC[C@H](C(=O)N4CCCC4)C3)ncnc2[nH]1
inhibition (NCI-H2228; cell growth or viability, MTT; 0.2 µg/mL, 72 h): 10.8%

CN1CCCNC(=O)c2cccc(c2)C(=O)NCCCN(C)CCCNc2cccc3c2C(=O)c2cccc(c2C3=O)NCCC1
log2 fold change (SAS; RNA-Seq, measured: NFRKB mRNA; 1 µM, 6 h; relative to: untreated cells): -1.32

COC1CN([C@H]2CC[C@H]([C@@]3(C)Oc4c(Cl)cc(C(=O)NCc5c(SC)cc(C)[nH]c5=O)c(C)c4O3)CC2)C1
log2 fold change (RNA-seq, measured: IL15; human, whole blood; dose not given, 24 h; relative to: pretreatment baseline): 2.29

CNS(=O)(=O)Nc1nccc(Cc2c(C)c3ccc(Oc4ncccc4F)cc3oc2=O)c1F
IC50 (HT; cell viability, CellTiter-Glo; 7 days): > 1000 nM

C=CC(=O)Nc1cccc(Cn2ncc3cnc(Nc4cnn(CCOC)c4)nc32)c1
binding (human ABL1-phosphorylated; KINOMEscan; 100 nM; relative to: control): 9.3%

C=CC(=O)N1[C@@H](c2ccc3c(c2)OCO3)c2[nH]c3ccccc3c2C[C@H]1C(=O)N1CCN(C)CC1
relative co-enrichment (human cyclin E1 wild type-3xFLAG:CDK2; co-IP with TMT proteomics, measured: RBMX; concentration not given, P38159; relative to: wild type DMSO): 109%

Cc1ncsc1-c1ccc(C(C)NC(=O)C2CC(O)CN2C(=O)C(NC(=O)CCCCCCCCCCN2CCCC(Nc3ncc(Cl)c(Nc4ccccc4S(=O)(=O)C(C)C)n3)C2)C(C)(C)C)cc1 (centres unmarked)
log2 fold change (22Rv1; RNA-seq, measured: SIX5 mRNA; concentration not given; relative to: DMSO): -1.15

Cc1cc(N2CCCCC2)ccc1-c1cc2c(N3CCC[C@H](C(=O)NCc4ccc(OC(F)(F)F)cc4)C3)ncnc2[nH]1
inhibition (NCI-H2228; cell growth or viability, MTT; 0.2 µg/mL, 72 h): 72%

COc1ccc(C(=O)CCc2cc(C(CCc3ccc(O)cc3OC)c3ccc(O)cc3)c(O)cc2OC)cc1 (racemic)
4-HDHA level (human blood; 0.3 µM, added: A23187): 31 ± 8 pg/mL

C=C(NC(=O)c1csc(-c2nc3c(cc2O)-c2nc(cs2)C(=O)NC(C(C)O)C(=O)NC(=C(C)OC)c2nc(cs2)C(=O)NC2c4nc(cs4)C(=O)NC(COC(=O)c4c5c6c(cccc6n4O)COC(=O)C(OC4CC(C)(O)C(N(C)C)C(C)O4)C2OC5)c2nc-3cs2)n1)C(N)=O (centres unmarked)
ED50 (Streptococcus pneumoniae; ATCC 49619, immunocompromised mice, lung infection; 24 h, bid dosing): 4.54 mg/kg

Cc1ncsc1-c1ccc(CNC(=O)[C@@H]2C[C@@H](O)CN2C(=O)[C@@H](NC(=O)CN2CCN(C3CN(CCNC(=O)C[C@@H]4N=C(c5ccc(Cl)cc5)c5c(sc(C)c5C)-n5c(C)nnc54)C3)CC2)C(C)(C)C)cc1
protein level (Spodoptera frugiperda; degrader, targeted LC-MS, measured: BRD3; Sf9; 0.0001 µM): 117% and 138% and 94.3% and 103%

CN(Cc1cc(C2CC2)on1)C(=O)c1cccc(-c2ccc3c(c2)CCO3)c1
reaction rate (acetyl-CoA synthetase 1 (Aspergillus fumigatus); enzyme activity, inhibitor, coupled pyrophosphate; 1 µM; higher is more activity): 0.00126 a.u.

Cc1cc(NC2CCN(C)CC2)ccc1-c1cc2c(N3CCC[C@H](C(=O)NCc4ccc(OC(F)(F)F)cc4)C3)ncnc2[nH]1
inhibition (NCI-H2228; cell growth or viability, MTT; 5 µg/mL, 72 h): 95.8%

Nc1nc(-c2ccccc2)nc2[nH]nc(Nc3cccc(Cl)c3)c12
IC50 (coxsackievirus B3; viral cytopathic effect; HeLa): 10 nM
